Measurements from different studies.
Each line is one published result; not all experiments were run side by side. Several values in a cell are separate wells, animals, samples, runs or records. ± gives the spread as reported.
BCHE: Cholinesterase (BCHE, Homo sapiens, UniProt P06276)
Sequence of UniProt P06276 (whole entry, looked up): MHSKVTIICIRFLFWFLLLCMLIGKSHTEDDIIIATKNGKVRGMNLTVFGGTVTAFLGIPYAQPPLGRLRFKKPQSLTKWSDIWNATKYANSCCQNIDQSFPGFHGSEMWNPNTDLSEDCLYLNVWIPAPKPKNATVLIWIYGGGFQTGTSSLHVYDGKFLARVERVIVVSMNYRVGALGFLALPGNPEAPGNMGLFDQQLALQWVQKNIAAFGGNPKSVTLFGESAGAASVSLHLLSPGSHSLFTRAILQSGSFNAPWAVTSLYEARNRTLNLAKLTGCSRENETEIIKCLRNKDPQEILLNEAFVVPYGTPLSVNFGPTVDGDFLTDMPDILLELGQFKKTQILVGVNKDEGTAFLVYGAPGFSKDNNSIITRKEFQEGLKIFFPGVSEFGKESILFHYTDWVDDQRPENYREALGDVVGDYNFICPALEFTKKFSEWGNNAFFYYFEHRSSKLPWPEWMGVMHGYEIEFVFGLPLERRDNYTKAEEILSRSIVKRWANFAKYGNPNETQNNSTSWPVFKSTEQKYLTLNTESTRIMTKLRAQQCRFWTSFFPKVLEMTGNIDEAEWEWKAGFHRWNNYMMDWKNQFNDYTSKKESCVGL
Sequence of UniProt O43242 (whole entry, looked up): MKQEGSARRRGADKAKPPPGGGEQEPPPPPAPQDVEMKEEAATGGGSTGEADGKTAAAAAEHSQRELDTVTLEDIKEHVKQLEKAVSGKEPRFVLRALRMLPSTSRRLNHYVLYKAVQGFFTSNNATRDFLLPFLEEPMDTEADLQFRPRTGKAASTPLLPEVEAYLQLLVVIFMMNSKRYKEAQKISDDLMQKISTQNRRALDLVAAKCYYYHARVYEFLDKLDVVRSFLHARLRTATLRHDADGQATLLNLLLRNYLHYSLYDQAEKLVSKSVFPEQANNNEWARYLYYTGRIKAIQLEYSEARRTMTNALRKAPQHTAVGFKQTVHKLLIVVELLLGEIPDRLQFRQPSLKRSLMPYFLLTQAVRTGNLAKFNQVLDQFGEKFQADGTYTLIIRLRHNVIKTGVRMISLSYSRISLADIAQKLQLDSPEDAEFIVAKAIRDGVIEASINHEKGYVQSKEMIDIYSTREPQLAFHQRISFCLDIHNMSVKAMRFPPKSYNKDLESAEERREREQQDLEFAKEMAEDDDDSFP

The mRNA level of `C[C@H]1O[C@@H](O[C@H]2CC[C@@]3(C)[C@@H](CC[C@]4(C)[C@@H]3C=C[C@]35OC[C@@]6(CCC(C)(C)C[C@H]63)[C@@H](O)C[C@]54C)[C@]2(C)CO)[C@H](O)[C@@H](O[C@@H]2O[C@H](CO)[C@@H](O)[C@H](O)[C@H]2O)[C@H]1O` is reported as 2.29 and 1.1 and 2.76 and 1.16 (refers to: SCD-1; ethanol-fed mice, hepatic SIRT1 knockdown (AAV8-TBG-SIRT1), liver; dose not given, high dose, unit not given; reference: AAV8-TBG-Null ethanol group).
`CC(C)(C)[C@]1(O)CCN2C[C@H]3c4ccccc4CCc4cccc(c43)[C@@H]2C1` has an IC50 of 5.01 µM (Plasmodium falciparum; 7G8).
With `C[C@H]1CN(c2n[nH]c3nc(N[C@H]4CC[C@H](NS(=O)(=O)CCC(F)(F)F)CC4)ncc23)CCO1` the relative abundance was 0.9 (26S proteasome non-ATPase regulatory subunit 3 (PSMD3, Homo sapiens, UniProt O43242); inhibitor, Kinobeads competition profiling; 0.16 µM; reference: vehicle).
With `CC(COc1ccccc1)N(CCCl)Cc1ccccc1` (stereo not shown) the IC50 was 7.94 µM (Plasmodium falciparum; 7G8).
Under “pathway fold enrichment”, `Nc1ncnc2c1ncn2[C@@H]1O[C@@H]2COP(=O)(O)O[C@H]3[C@@H](O)[C@H](n4cnc5c(=O)[nH]cnc54)O[C@@H]3COP(=O)(O)O[C@H]2[C@H]1O` is recorded as 6.75 (HFF-1; RNA sequencing, refers to: Cross-presentation; upregulated pathway; reference: Zika virus alone).
The DNA methylation of `COc1ccc2c(c1)[nH]c1c(C)nccc12` is reported as 94.2% (DU-145; bisulfite pyrosequencing, refers to: RASSF1A promoter CpG site 9; 10 µM, 16 h).
For `C[C@]12C=CC(=O)C=C1CC[C@@H]1C2=CC[C@]2(C)[C@@H](C(=O)CN3CCN(c4cc(N5CCCC5)nc(N5CCCC5)n4)CC3)CC[C@@H]12`, the IC50 was 1 µM (Plasmodium falciparum; 7G8).
`COc1cc(CCC[P+](c2ccccc2)(c2ccccc2)c2ccccc2)c(OC)c2c1OCO2.[I-]` gave a GI50 of -6 log M (IGROV-1; SRB).
The IC50 of `CN[C@@H](C)[C@H]1[C@H](O)C[C@@]2(C)[C@@H]3CC[C@H]4C(C)(C)[C@@H](NC)CC[C@@]45C[C@@]35CC[C@]12C` is reported as 5.09 ± 2.75 µM (BCHE; inhibitor, fluorometric).
`C#CCN(C)[C@H](C)Cc1ccccc1`: “corridor crossing time” 7.87 s and 6.99 s and 5.86 s and 6.33 s and 5.16 s and 4.04 s and 5.22 s (footprint test; MPTP-induced Parkinson's disease mouse model; 10 mg/kg, trial 2).
`CC(N)C(=O)OC(C)(C)Cc1ccc(Cl)cc1` (stereo not shown) gave an IC50 of 7.94 µM (Plasmodium falciparum; 7G8).
`COc1c(C)c2c(c(O)c1C/C=C(\C)CCC(=O)O)C(=O)OC2` gave an IC50 of 4.07 µM (RD; cell proliferation; muscle cancer).
`CC[C@H](C)[C@@H]1NC(=O)[C@@H]2CCCN2C(=O)[C@H](CC(C)C)NC(=O)[C@H](CC(C)C)NC(=O)CNC(=O)[C@@H](NC(=O)[C@@H](NC(=O)[C@H](CC(=O)O)NC(=O)CNC(=O)[C@@H](NC(=O)[C@H](C)NC(=O)CNC(=O)[C@H](CCCCN)NC(=O)[C@H](CC(C)C)NC(=O)[C@H](CC(C)C)NC(=O)[C@H](CCCCN)NC(=O)CNC(=O)[C@@H](NC(=O)[C@@H](N)CC(C)C)C(C)C)C(C)C)C(C)C)CSSC[C@@H](C(=O)O)NC1=O` — result for “log2 fold change”: -1.47 (RNA-seq, refers to: Klf2; mouse, traumatic brain injury model, frontal cortex and hippocampus; dose not given; reference: TBI alone).
For `COc1c(CCC[P+](c2ccccc2)(c2ccccc2)c2ccccc2)cc2c(c1OC)OCO2.[I-]`, the LC50 was -4.83 log M (A498; SRB).
With `Cc1cccc(S(=O)(=O)N2CCC[C@@H]2CCN2CCC(C)CC2)c1` the IC50 was 5.94 ± 1.01 µM (BCHE; inhibitor; with Triton).
`Nc1ccn(C[C@@H](CO)OCP(=O)(O)O)c(=O)n1` has an infection of 103% and 109% and 99.3% (Fowlpox virus; viral infection; CEF; 6.25 µM; reference: untreated).

Some of these lines once more:
For `C[C@]12C=CC(=O)C=C1CC[C@@H]1C2=CC[C@]2(C)[C@@H](C(=O)CN3CCN(c4cc(N5CCCC5)nc(N5CCCC5)n4)CC3)CC[C@@H]12`, the IC50 was 1 µM (Plasmodium falciparum; 7G8).
